Experimental data gathered from unrelated publications.
“And” joins repeats or separate records; there may be more than shown. ± gives the spread as reported.
TNIK: TRAF2 and NCK-interacting protein kinase (TNIK, Homo sapiens, UniProt Q9UKE5)
HSP90AB1: Heat shock protein HSP 90-beta (HSP90AB1, Homo sapiens, UniProt P08238)

SMILES | tested on | test | test system | conditions | how to read | measurement | value
CSCC[C@H](NC=O)C(=O)N[C@@H](CCCNC(=N)N)C(=O)N[C@H](C(=O)NCC(=O)N[C@@H](CC(N)=O)C(=O)N[C@@H](C)C(=O)N[C@@H](CC(N)=O)C(=O)NCC(=O)NCC(=O)N[C@@H](CCCCNC(=S)Nc1ccc2c(c1)C(=O)OC21c2ccc(O)cc2Oc2cc(O)ccc21)C(=O)O)[C@@H](C)O | Uncharacterized protein YejA (yejA, Escherichia coli, UniProt P33913, Y155F) | binding, fluorescence polarisation |  | YejA variant Y137F |  | Kd | 6.38 ± 0.39 µM
CS(C)(=O)=Nc1ccc(-c2ccc(-c3nc4cc(O[C@@H]5CO[C@H]6[C@@H]5OC[C@H]6O)[nH]c4cc3F)cc2)cc1 | TNK2 (Homo sapiens, UniProt Q07912) | enzyme activity, inhibitor |  | 10 µM |  | inhibition | 4%
COc1ccccc1-c1n[nH]c2nc(NC3CCN(C(=O)Cc4ccc(F)cc4F)CC3)ncc12 |  | bead binding, competition bead pull-down, refers to: LINJ.30.2340 | Leishmania donovani extract | 10 µM | reference: vehicle | relative abundance | 0.98
CCCC[C@H](N)C(=O)N[C@H]1CSCCCCCCCCCCSC[C@@H](C(=O)N[C@H](C(N)=O)[C@@H](C)O)NC(=O)[C@H](CCCCN)NC(=O)[C@H](CCCCN)NC(=O)[C@H](CCCCN)NC(=O)[C@H](Cc2ccc(O)cc2)NC(=O)[C@H](CC(N)=O)NC(=O)[C@H](CC(C)C)NC1=O | GTPase KRas, GDP-bound (KRAS, Homo sapiens, UniProt P01116, C118S/G12V) | binding, biolayer interferometry |  | GDP-bound form |  | Kd | 100 µM
N[C@@H](Cc1ccccc1)P(=O)(O)O | PAL1 (Petroselinum crispum, UniProt P24481, Y110F) | ITC |  |  |  | Kd | 8.9 µM
COc1ccccc1-c1n[nH]c2nc(N[C@H]3CC[C@H](NS(=O)(=O)CC(C)C)CC3)ncc12 |  | bead binding, competition bead pull-down, refers to: LINJ.25.1790 | Leishmania donovani extract | 10 µM | reference: vehicle | relative abundance | 0.69
O=C(CF)N[C@H]1[C@H]([C@H](O)[C@H](O)CNC(=O)c2ccc(-c3ccccc3)cc2)O[C@@](OCc2cccc(Cl)c2Cl)(C(=O)O)C[C@@H]1O | CD22 (Homo sapiens, UniProt P20273) | binding, ITC |  |  |  | Kd | 0.16 µM
CC[C@H](C)[C@@H]1NC(=O)[C@@H](Cc2ccccc2)NC(=O)[C@@H](Cc2ccccc2)NC(=O)[C@@H](C)NC(=O)[C@H](CCC(=O)N[C@@H](CCCCN)C(N)=O)NC(=O)[C@@H](C)NC(=O)[C@@H](C)NC(=O)[C@@H](C)NC(=O)[C@H](Cc2c[nH]c3ccccc23)NC(=O)[C@H](CCCNC(=N)N)NC1=O | Lysine--tRNA ligase (KARS1, Homo sapiens, UniProt Q15046) | binding |  |  |  | Kd | 1.5 µM
C=C1NC(=O)CNC(=O)[C@H](CC(N)=O)NC(=O)[C@H](CC(C)C)NC(=O)CNC(=O)[C@H](CCCCN)NC(=O)[C@H](C)NC(=O)[C@H]([C@@H](C)CC)NC(=O)[C@H](CO)NC(=O)[C@H](Cc2c[nH]c3ccccc23)NC(=O)[C@H](C)NC(=O)[C@H](Cc2c[nH]c3ccccc23)NC(=O)c2ccc(-c3nc(C(=O)OC)cs3)nc2-c2csc1n2 | TNIK | SPR |  | with: ATP 1 mM |  | Kd | 0.0063 ± 0.0001 µM
CC[C@H](C)[C@H](NC(=O)[C@H](Cc1ccccc1)NC(=O)[C@H](CCC(=O)O)NC(=O)[C@H](CC(=O)O)NC(=O)[C@H](CC(=O)O)NC(=O)[C@H](CC(=O)O)NC(=O)[C@H](CC(=O)O)NC(=O)[C@H](CC(=O)O)NC(=O)[C@H](C)NC(=O)[C@H](C)NC(=O)[C@H](CC(=O)O)NC(=O)[C@H](CCC(=O)O)NC(=O)[C@@H](N)CC(=O)O)C(=O)N[C@@H](Cc1ccc(O)cc1)C(=O)N1CCC[C@H]1C(=O)N[C@@H](CC(N)=O)C(=O)N[C@@H](CO)C(=O)N[C@@H](Cc1ccc(O)cc1)C(=O)O | RNA-binding protein RRM4 (RRM4, Mycosarcoma maydis, UniProt A0A0D1DWZ5) | isothermal titration calorimetry |  | pH 8.0, 25 °C |  | Kd | 6.4 µM
CCCc1cc2cc(-n3nc(CC)c4c3CC3(CCC3)CC4=O)cc(N3CCC(O)CC3)c2c(=O)[nH]1 | HSP90AB1 | fluorescence polarization |  | 24 h, 4 °C, with: FITC-geldanamycin tracer |  | Kd | 3.57 µM
O=C1NC2(CC2)COc2ncc(F)cc2[C@H]2COCCN2c2ccn3ncc1c3n2 |  |  | Sprague-Dawley rat, male, serum | oral, 5 mg/kg/day, end of recovery, 4-week subacute toxicity |  | serum sodium | 145 ± 2 mmol/L
C=C1NC(=O)[C@H](C)NC(=O)[C@H](Cc2ccccc2)NC(=O)[C@H](CCCNC(=N)N)NC(=O)[C@H](CCSC)NC(=O)CNC(=O)[C@H]([C@@H](C)CC)NC(=O)[C@H](CCC(N)=O)NC(=O)[C@H]([C@@H](C)CC)NC(=O)[C@H](CC(=O)O)NC(=O)[C@H](Cc2c[nH]c3ccccc23)NC(=O)[C@H](Cc2c[nH]c3ccccc23)NC(=O)c2ccc(-c3nc(C(=O)OC)cs3)nc2-c2csc1n2 | TNIK | binding, SPR |  |  |  | Kd | 0.025 µM
CC(C)(C)C(=O)OCOP(=O)(OCOC(=O)C(C)(C)C)C1CCCN(O)C1=O (centres unmarked) | HT-29 |  |  |  |  | log GI50 | -6.47 log M
CCCc1cc2cc(-n3nc(CC)c4c3CC(C)(C)CC4=O)cc(N3CCC(O)CC3)c2c(=O)[nH]1 | HSP90AB1 | fluorescence polarization |  | 24 h, 4 °C, with: FITC-geldanamycin tracer |  | Kd | 0.225 µM
C=C1[C@@H](O)C[C@H]2C(C)(C)C[C@H](C)C[C@]2(C)[C@H]1C[C@H](O)[C@H]1CC(=O)NC1=O | ribosome, Saccharomyces cerevisiae, 80S, E site | smFRET |  | pH 7.5, 23 °C, 5 mM MgCl2 |  | Kd | 1.4 ± 0.75 µM
CC12CCC(=O)C=C1CCC1C2C=C(c2cccnc2)C2(C)C(=O)CCC12 (centres unmarked) | 7-alpha-hydroxycholest-4-en-3-one 12-alpha-hydroxylase (Homo sapiens, UniProt Q9UNU6, W281F) | binding, spectral titration |  |  |  | Kd | ~32 µM and 32.1 µM
CCCc1cc2cc(-n3nc(CO)c4c3CC(C)(C)CC4=O)cc(N3CCC(O)CC3)c2c(=O)[nH]1 | HSP90AB1 | fluorescence polarization |  | 24 h, 4 °C, with: FITC-geldanamycin tracer |  | Kd | 4.9 µM
C=C(CC)C(=O)c1ccc(OCC(=O)NCCNC(=O)CCN2C=C/C(=C\c3sc4ccccc4[n+]3CCC(=O)NCCNC(=O)COc3ccc(C(=O)C(=C)CC)c(Cl)c3Cl)c3ccccc32)c(Cl)c1Cl | GSTP1 (Homo sapiens, UniProt P09211) | fluorescence titration |  | 30 min, pH 6.5 |  | Kd | 0.029 ± 0.00521 µM
N=C(N)NCc1cn([C@@H]2[C@@H](OCCn3cc(COCCOCCOCCn4cc(-c5cc(OCCOCCO)c(C#Cc6cc(OCCOCCO)c(C#Cc7cc(OCCOCCO)c(-c8cn(CCOCCOCCOCc9cn(CCO[C@H]%10O[C@H](CO)[C@@H](O)[C@H](O)[C@@H]%10n%10cc(CNC(=N)N)nn%10)nn9)nn8)cc7OCCOCCO)cc6OCCOCCO)cc5OCCOCCO)nn4)nn3)O[C@H](CO)[C@@H](O)[C@@H]2O)nn1 | CD209 antigen (CD209, Homo sapiens, UniProt Q9NNX6) | binding |  |  |  | Kd | 20.9 µM and 38.8 µM
Cc1cc(C(=O)Nc2nc3cccc(C)c3n2[C@H]2CCCCN(C(=O)/C=C/CN(C)C)C2)ccn1 | Trypanosoma brucei | propidium iodide flow cytometry | bloodstream form | concentration not given, 8 h |  | cells in sub-G0 phase | 0.96%
CC(C)C[C@H](NC(=O)[C@H](CCP(=O)(O)O)NC(=O)[C@@H](NC(=O)[C@@H](NC(=O)[C@H](CCCNC(=N)N)NC(=O)[C@H](CC(C)C)NC(=O)[C@H](CO)NC(=S)Nc1ccc2c(c1)C(=O)OC21c2ccc(O)cc2Oc2cc(O)ccc21)[C@@H](C)O)C(C)C)C(=O)NCC(=O)N[C@@H](C)C(=O)NCC(=O)N[C@@H](C)C(=O)N[C@@H](Cc1c[nH]c2ccccc12)C(=O)N[C@@H](CC(C)C)C(=O)N[C@H](C(=O)N1CCC[C@H]1C(=O)N[C@@H](CCCNC(=N)N)C(=O)O)C(C)C | 14-3-3 protein beta/alpha (Homo sapiens, UniProt P31946) | binding, fluorescence anisotropy |  | pH 7.5, FITC-labelled phosphopeptide titration |  | Kd | 20.9 µM
CC[C@H](C)[C@H](NC(=O)[C@H](CC(=O)O)NC(=O)[C@H](CCCNC(=N)N)NC(=O)[C@H](C)NC(=O)c1ccc2c(c1)C(=O)OC21c2ccc(N(C)C)cc2Oc2cc(N(C)C)ccc21)C(=O)N[C@@H](Cc1c[nH]cn1)C(=O)N[C@@H](Cc1c[nH]cn1)C(=O)N[C@H](C(=O)N[C@@H](CC(=O)O)C(=O)N[C@@H](Cc1ccc(O)cc1)C(=O)N[C@@H](Cc1ccc(OP(=O)(O)O)cc1)C(=O)N[C@@H](CCCCN)C(=O)N[C@@H](CCCCN)C(=O)N[C@H](C(=O)N[C@H](C(=O)N[C@@H](CC(N)=O)C(=O)NCC(=O)N[C@@H](CCCNC(=N)N)C(=O)N[C@@H](CC(=O)O)C(=O)O)[C@@H](C)O)[C@@H](C)O)[C@@H](C)CC | GRB2-related adapter protein 2, SH2 domain (GRAP2, Homo sapiens, UniProt O75791) | binding |  |  |  | Kd | 1.08 µM
CC(C)[C@H]1NC(=O)C[C@H]2/C=C/CCSSC[C@@H](NC1=O)C(=O)N[C@H](Cc1cccc3ccccc13)C(=O)NCC(=O)O2 | PTK2B (Homo sapiens, UniProt Q14289) | enzyme activity, inhibitor |  | 10 µM |  | inhibition | 1.4%
Cc1cc(Oc2nc(N3CC[C@@H](c4ccncc4)C3)ncc2F)[nH]n1 | Hs 729 | cell proliferation |  |  |  | IC50 | > 100 µM
CC[C@H](C)[C@H](NC(=O)[C@H](CC(C)C)NC(=O)[C@H](C)NC(=O)[C@H](C)NC(=O)[C@@H]1CCCN1C(=O)[C@@H](NC(=O)[C@H](C)N)C(C)C)C(=O)N[C@@H](CC(C)C)C(=O)N[C@@H](CCCNC(=N)N)C(=O)N[C@@H](CCC(=O)O)C(=O)N[C@@H](CCCCN)C(=O)N[C@@H](CCCCN)C(=O)N[C@@H](CCCCN)C(=O)N[C@@H](CCCCNC(=O)CCCCCNC(=S)Nc1ccc2c(c1)C(=O)OC21c2ccc(O)cc2Oc2cc(O)ccc21)C(N)=O | E3 ubiquitin-protein ligase XIAP, BIR1 domain (XIAP, Homo sapiens, UniProt P98170) | fluorescence polarization |  | 30 min, pH 7.5, with: 20 nM FITC-labeled peptide |  | Kd | no binding
CC(C)[C@@H]1NC(=O)[C@H](Cc2ccccc2)NC(=O)CSC[C@@H](C(N)=O)NC(=O)[C@H](CCC(=O)O)NC(=O)[C@H](CO)NC(=O)[C@H](Cc2c[nH]c3ccccc23)NC(=O)[C@H](C2CCCCC2)NC(=O)[C@H](C(C)C)NC(=O)[C@H](Cc2ccc(O)cc2)NC(=O)[C@H](CC(=O)O)NC(=O)[C@H](Cc2c[nH]c3ccccc23)NC(=O)[C@H](Cc2ccc(O)cc2)NC(=O)[C@H](Cc2c[nH]c3ccccc23)NC(=O)[C@H](CCC(=O)O)NC1=O | Interleukin-1 receptor-like 2, D1-D2 domains (IL1RL2, Homo sapiens, UniProt Q9HB29) | SPR |  | IL-36R domains D1-D2 |  | Kd | 0.072 ± 0.016 µM
CN(C)[C@H]1C[C@@]23CC[C@@]4(O2)C(=CC[C@]2(C)[C@@H](c5ccc6ccncc6c5)CC[C@H]24)C=C3[C@@H](O)[C@@H]1O | IRAK1 (Homo sapiens, UniProt P51617) | ATP probe labelling, inhibitor, KiNativ profiling |  | 0.1 µM |  | inhibition | -4.4%
O=C(N[C@@H]1c2ccccc2C[C@H]1N1CCCC1)c1ccc(-c2ccnc3[nH]ccc23)nc1 | Ribosomal protein S6 kinase alpha-4, C-terminal kinase domain (RPS6KA4, Homo sapiens, UniProt O75676) | binding, competition with immobilised ligand |  |  |  | Kd | 0.63 µM

A few entries again:
SMILES | tested on | test | test system | conditions | how to read | measurement | value
CC(C)[C@H]1NC(=O)C[C@H]2/C=C/CCSSC[C@@H](NC1=O)C(=O)N[C@H](Cc1cccc3ccccc13)C(=O)NCC(=O)O2 | PTK2B (Homo sapiens, UniProt Q14289) | enzyme activity, inhibitor |  | 10 µM |  | inhibition | 1.4%
CCCc1cc2cc(-n3nc(CO)c4c3CC(C)(C)CC4=O)cc(N3CCC(O)CC3)c2c(=O)[nH]1 | HSP90AB1 | fluorescence polarization |  | 24 h, 4 °C, with: FITC-geldanamycin tracer |  | Kd | 4.9 µM
CCCC[C@H](N)C(=O)N[C@H]1CSCCCCCCCCCCSC[C@@H](C(=O)N[C@H](C(N)=O)[C@@H](C)O)NC(=O)[C@H](CCCCN)NC(=O)[C@H](CCCCN)NC(=O)[C@H](CCCCN)NC(=O)[C@H](Cc2ccc(O)cc2)NC(=O)[C@H](CC(N)=O)NC(=O)[C@H](CC(C)C)NC1=O | GTPase KRas, GDP-bound (KRAS, Homo sapiens, UniProt P01116, C118S/G12V) | binding, biolayer interferometry |  | GDP-bound form |  | Kd | 100 µM
